{"data": "Results gathered from unrelated publications", "note": "Every numbered part comes from another study and shows a few of its results, in no order. Positions count from the first letter of the parent shown."}
{"data": "Set 1", "target": "Histone acetyltransferase KAT6A, both winged helices, GST fusion (KAT6A, Homo sapiens, UniProt Q92794, residues 1-181)", "method": "protein binding microarray", "form": "double-stranded DNA, one strand shown", "medium": "in vitro", "tested at": "not given", "notes": "8-mer, flanks averaged, mean of 2 arrays, mostly near background", "baseline": "not given", "reading": "higher = stronger binding", "Construct (chain)": "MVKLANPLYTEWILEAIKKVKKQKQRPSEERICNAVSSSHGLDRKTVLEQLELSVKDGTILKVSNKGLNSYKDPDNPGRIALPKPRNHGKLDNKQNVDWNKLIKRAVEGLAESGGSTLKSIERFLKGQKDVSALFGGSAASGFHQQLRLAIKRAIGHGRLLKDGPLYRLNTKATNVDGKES"}
{"Sequence": "CACGGGCG", "E-score": 0.28}
{"Sequence": "GAGGGGGC", "E-score": -0.14}
{"Sequence": "AGATGGCG", "E-score": 0.0601}
{"Sequence": "AGGGGTGC", "E-score": -0.115}
{"Sequence": "CAAGATTG", "E-score": -0.125}
{"Sequence": "AACTCGCA", "E-score": -0.127}
{"Sequence": "CCATGTAG", "E-score": -0.0431}
{"data": "Set 2", "target": "ABI1, truncated, D143A, DHFR fusion (Arabidopsis thaliana)", "method": "DHFR PCA, deep sequencing", "medium": "yeast", "notes": "methotrexate growth selection, single substitutions", "added": "(+)-ABA 2500 µM", "baseline": "wild-type fitted maximum", "reading": "higher = stronger binding", "starting sequence": "PYL1, truncated, DHFR fusion (Arabidopsis thaliana); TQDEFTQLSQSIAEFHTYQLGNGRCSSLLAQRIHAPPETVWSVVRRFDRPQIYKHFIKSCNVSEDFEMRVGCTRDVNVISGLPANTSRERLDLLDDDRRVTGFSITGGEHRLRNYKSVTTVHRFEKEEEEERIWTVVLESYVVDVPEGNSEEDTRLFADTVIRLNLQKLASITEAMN"}
{"Change": "D96V", "relative binding score [%]": 81.9}
{"Change": "W41E", "relative binding score [%]": 11.4}
{"Change": "E109V", "relative binding score [%]": 96}
{"Change": "N165G", "relative binding score [%]": 71}
{"Change": "A13H", "relative binding score [%]": 102}
{"Change": "T101I", "relative binding score [%]": 103}
{"Change": "E152R", "relative binding score [%]": 92.3}
{"Change": "E130A", "relative binding score [%]": 105}
{"data": "Set 3", "target": "RING finger protein unkempt homolog, zinc fingers 1-6, GST-SBP tag (UNK, Homo sapiens, UniProt Q9C0B0, residues 30-357)", "method": "RNA Bind-n-Seq", "form": "RNA", "medium": "in vitro", "tested at": "not given", "notes": "RNA with constant flanks, human-mouse chimeric sites, ends assumed", "baseline": "input RNA pool", "reading": "higher = stronger binding", "all sequences stand within": "GGGAGUUCUACAGUCCGACGAUC … CAACAGAGGAUUGAGCAUCA", "Residues (chain)": "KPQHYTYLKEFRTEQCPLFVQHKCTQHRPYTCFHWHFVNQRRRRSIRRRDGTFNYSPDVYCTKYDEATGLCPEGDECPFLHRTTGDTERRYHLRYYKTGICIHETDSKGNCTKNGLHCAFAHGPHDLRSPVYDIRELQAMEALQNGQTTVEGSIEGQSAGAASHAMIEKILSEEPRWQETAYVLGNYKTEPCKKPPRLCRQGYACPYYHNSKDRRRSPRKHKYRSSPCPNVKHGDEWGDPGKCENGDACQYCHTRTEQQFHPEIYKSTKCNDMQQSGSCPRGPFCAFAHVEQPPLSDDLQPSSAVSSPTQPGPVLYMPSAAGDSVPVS"}
{"Sequence": "GACUUGGACCUUCCUGGGGCUAGUACAAAUAGCGGCAGUGGAGGCUCGAGAGGAAAGUUUGUUAGUGGAGGCAGUGGUAGAGGCCGUCAUGUACGGUCCUUUACUCGAUAGAUGUGUUCU", "bound/input enrichment [ratio]": 0.187}
{"Sequence": "GGCCUGGGACCGUCCUGGGCUAGUACAAAUAGCGGCAGUGGAGGCUCAGAGGAAAGUUUUGUUAGUGAGGCAGUGGUUAGAGGCCGUCAUGUACGGUCCUUUACUCGAUAGAUGUGUUCU", "bound/input enrichment [ratio]": 0.675}
{"Sequence": "UAAGUUAUUUUGUACAGCUUUGUAAAUUCUUAACAUUUUUAUAUUGCCAUGUUUAUUUUGUUUGGGUGCUUUAUUAAAUUAAGUACAUAGCUAAGGUAAUGAACAUCGUAAUUAUAGAUU", "bound/input enrichment [ratio]": 0.638}
{"Sequence": "ACCUCCCCCUCCCGCCUCACCCCACCCCCGCUUUUUGAAAGUGUGUUGGCUUUUUUUUUCCUUCCCCAUACAAAGUGAUUACAGUUUCCCCCGCAAGGGUCUAUCGAAGGGCUUGACGGA", "bound/input enrichment [ratio]": 1.32}
{"Sequence": "UUUCUAUUGCAGCAGACGAUGCUAAGAAUUAAGGAUCCUAAGAAGUCCCUGGAUUUUUAUACGAGGGUUCUUGGACUGACCCUCCUGCAGAAGCUUGACUUCCCUGCUAUGAAGUUCUCG", "bound/input enrichment [ratio]": 0.295}
{"Sequence": "CGCAGAAGGUUAAAGGGUGAGAGUGGGGUGGAAGACUGUGUCAUGGCCCUAGAAACCCUGUUCAGUGUCCUGCUUUCUCUGUGCAGACUGAUGGCCCCUUACACGCCCUUUCUGACUGAG", "bound/input enrichment [ratio]": 0.0442}
{"Sequence": "AGAUUCCCCCUCCUGAGACCUCCUCCGAAGUUGGAGUCUCUUAUAGAUGCCUCAUCCCCUGUUAGCGUUUUAGUUUGGACCACCCAGCCUUGGACGAUUCCCGCCAACCAGGCAAUUUGC", "bound/input enrichment [ratio]": 0.947}
{"Sequence": "GUAAUGGACGUCAACACUGCUCUACAAGAGGUGCUGAAGACUGCCCUCAUCCACGAUGGCCUAGCACGUGGAAUUCGCGAAGCUGCCAAAGCCUUAGACAAGCGCCAAGCCCAUCUGUGU", "bound/input enrichment [ratio]": 0.676}
{"Sequence": "CACAGAGCAGCACCUACCCCCUCCUCCUUUCCACACCUGCAAACUCUUUUACUUGGGCUGAAUAUUUAGUGUUAAUUACAUCGCAGCUUGAGGGCUCCUGUGGCAAAUUCCCGGAUUAAA", "bound/input enrichment [ratio]": 1.19}
{"data": "Single results of other studies"}
{"Substance": "PhoQ, residues 284 288 289 292 302 303 GLASVI", "target": "PhoP, residues 12 14 15 18 19 MHTVL (Escherichia coli, UniProt P23836)", "test": "Sort-seq, measured: YFP reporter", "test system": "E. coli", "conditions": "PhoQ-PhoP variant library, added: 10 µM Mg2+", "how to read": "baseline: high Mg2+ state, higher = stronger signaling", "quantity": "fold induction", "value": 7.48}
{"note": "Some of these lines once more (set 3):"}
{"Sequence": "ACCUCCCCCUCCCGCCUCACCCCACCCCCGCUUUUUGAAAGUGUGUUGGCUUUUUUUUUCCUUCCCCAUACAAAGUGAUUACAGUUUCCCCCGCAAGGGUCUAUCGAAGGGCUUGACGGA", "bound/input enrichment [ratio]": 1.32}
{"Sequence": "UAAGUUAUUUUGUACAGCUUUGUAAAUUCUUAACAUUUUUAUAUUGCCAUGUUUAUUUUGUUUGGGUGCUUUAUUAAAUUAAGUACAUAGCUAAGGUAAUGAACAUCGUAAUUAUAGAUU", "bound/input enrichment [ratio]": 0.638}
